Measured values pooled from the literature.
Each numbered part is a random draw from the data of one study; scales do not carry over between parts. Substitutions count along the parent as printed.

Block 1 — target: UBE2J1 UBC core domain (UniProt Q9Y385); method: yeast two-hybrid; medium: yeast; notes: mostly zero background; baseline: not given; reading: higher = stronger interaction
B1: TRIM55 RING domain (UniProt Q9BYV6); chain TMDNLEKQLICPICLEMFTKPVVILPCQHNLCRKCASDIFQASNPYLPTRGGTTMASGGRFRCPSCRHEVVLDRHG
B2: PHF7 RING domain (UniProt Q9BWX1); chain IQHGHVGEESCILCCEDLSQQSVENIQSPCCSQAIYHRKCIQKYAHTSAKHFFKCPQCNNRKEFPQEML
B3: MSL2 RING domain (UniProt Q9HCI7); chain LLPYFRQSLSCCVCGHLLQDPIAPTNSTCQHYVCKTCKGKKMMMKPSCSWCKDYEQFEENKQ
B4: TRIM35 RING domain (UniProt Q9UPQ4); chain PSRSFKEELLCAVCYDPFRDAVTLRCGHNFCRGCVSRCWEVQVSPTCPVCKDRASPADLRT
B5: TRIM38 RING domain (UniProt O00635); chain STKKMMEEATCSICLSLMTNPVSINCGHSYCHLCITDFFKNPSQKQLRQETFCCPQCRAPFHMDSLRP
B6: RNF112 RING domain (UniProt Q9ULX5); chain QPMAPRELPTCSICLERLRDPISLDCGHDFCIRCFSTHRLPGCEPPCCPECRKICKQKRGLR
B7: RNF14 RING domain (UniProt Q9UBS8); chain IKCFNSKLFLCSICFCEKLGSECMYFLECRHVYCKACLKDYFEIQIRDGQVQCLNCPEPKCPSVATPGQVK
B8: TRIM52 RING domain (UniProt Q96A61); chain PMQTLQEEAVCAICLDYFKDPVSISCGHNFCRGCVTQLWSKEDEEDQNEEEDEWEEEEDEEAV
B9: RNF175 RING domain (UniProt Q8N4F7); chain LPTRSLSDNICAVCGQKIIVELDEEGLIENTYQLSCNHVFHEFCIRGWCIVGKKQTCPYCKEKVDLKRMIS
B10: RNF43 RING domain (UniProt Q68DV7); chain SGSSCSSAPVCAICLEEFSEGQELRVISCLHEFHRNCVDPWLHQHRTCPLCMFNITEGDSFS
Construct (chain): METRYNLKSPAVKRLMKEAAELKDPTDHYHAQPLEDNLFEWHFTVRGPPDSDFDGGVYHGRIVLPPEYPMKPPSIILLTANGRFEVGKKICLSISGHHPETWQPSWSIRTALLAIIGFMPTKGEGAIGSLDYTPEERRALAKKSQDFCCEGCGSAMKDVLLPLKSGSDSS
Sequence | lacZ reporter activity
B1 (TRIM55 RING domain) | 0
KIKDLNEHIVCCLCAGYFVDATTITECLHTFCKSCIVKYLQTSKYCPMCNIKIHETQPLL (PCGF1 RING domain (UniProt Q9BSM1)) | 0
B2 (PHF7 RING domain) | 0
MANWVFCNRCFQPPHRTSCFSLTNCGHVYCDACLGKGKKNECLICKAPCRTVLLSK (RNF212 RING domain (UniProt Q495C1)) | 0
B3 (MSL2 RING domain) | 0
B4 (TRIM35 RING domain) | 0
B5 (TRIM38 RING domain) | 0
KRQCSDVDDICSICQAEFQKPILLICQHIFCEECMTLWFNREKTCPLCRTVISDHINKW (RNFT1 RING domain (UniProt Q5M7Z0)) | 0
B6 (RNF112 RING domain) | 0
SYEDKSNDFVCPICFDMIEEAYMTKCGHSFCYKCIHQSLEDNNRCPKCNYVVDNIDHLY (COP1 RING domain (UniProt Q8NHY2)) | 0
FLKKLEQSFMCVCCQELVYQPVTTECFHNVCKDCLQRSFKAQVFSCPACRHDLGQNYIMI (UHRF2 RING domain (UniProt Q96PU4)) | 0
B7 (RNF14 RING domain) | 0
B8 (TRIM52 RING domain) | 0
B9 (RNF175 RING domain) | 0
QLQDEEDDSLCRICMDAVIDCVLLECGHMVTCTKCGKRMSECPICRQYVVRAVHVF (RNF34 RING domain (UniProt Q969K3)) | 0
B10 (RNF43 RING domain) | 0

Block 2 — target: CCND2, cyclin fold, Cln2 fusion (human); method: yeast growth competition, sequencing; medium: yeast; notes: weak parent motif; baseline: not given; reading: higher = stronger binding
Starting sequence: CDC6 docking peptide (human); TLKGRRLVFDNQL
Variant | normalised enrichment score
THKGRRLVFDNQL [L2H] | 0.1
TLKGRRLPFDNQL [V8P] | -0.0742
TQKGRRLVFDNQL [L2Q] | 0.0596
TLKGRRLVCDNQL [F9C] | -0.224
TLKGRRLVFDNQR [L13R] | 0.195
TLKGRRLVFDNCL [Q12C] | 0.0919
TLKGRRLVTDNQL [F9T] | 0.144
TLKGRRLEFDNQL [V8E] | 0.496
ILKGRRLVFDNQL [T1I] | -0.0336
ALKGRRLVFDNQL [T1A] | 0.473
TLKGRRLVFCNQL [D10C] | 0.543
TLKGRRLVFDNQK [L13K] | 0.0447
TLFGRRLVFDNQL [K3F] | -0.124
VLKGRRLVFDNQL [T1V] | 0.448
TLYGRRLVFDNQL [K3Y] | 0.438
TLKGERLVFDNQL [R5E] | 0.205

Block 3 — method: RNA Bind-n-Seq; form: RNA; medium: in vitro; concentration: 1 µM; notes: whole 134-nt RNA, ends assumed; added: 150 mM KCl; baseline: input library; reading: higher = stronger binding
Target: Ras GTPase-activating protein-binding protein 1, C-terminal RGG region (G3BP1, Homo sapiens, UniProt Q13283)
Sequence of UniProt Q13283 (whole entry, looked up): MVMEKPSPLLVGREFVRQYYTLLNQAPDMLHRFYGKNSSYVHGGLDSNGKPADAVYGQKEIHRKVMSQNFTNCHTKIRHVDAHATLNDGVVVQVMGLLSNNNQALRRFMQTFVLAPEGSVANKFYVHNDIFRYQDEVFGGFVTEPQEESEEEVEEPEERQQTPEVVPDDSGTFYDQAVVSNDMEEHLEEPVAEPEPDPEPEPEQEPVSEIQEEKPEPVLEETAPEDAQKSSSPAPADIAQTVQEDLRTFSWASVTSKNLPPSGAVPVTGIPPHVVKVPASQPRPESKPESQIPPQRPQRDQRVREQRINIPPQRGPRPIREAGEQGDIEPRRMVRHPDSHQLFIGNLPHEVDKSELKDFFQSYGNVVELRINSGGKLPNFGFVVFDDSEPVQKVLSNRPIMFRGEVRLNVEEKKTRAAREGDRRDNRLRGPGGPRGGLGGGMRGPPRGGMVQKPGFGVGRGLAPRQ
All sequences stand within: GGGAGUUCUACAGUCCGACGAUC … UGGAAUUCUCGGGUGUCAAGG
Oligonucleotide | log2 enrichment
GCAGGAAGUAAAAACAAAUGGAAAUGCUUCGGAUAGUGGCAGGGGUGGGGGUUGCUAAGGAAAGGGUGGCAUGGGAGUGGGUAAAGAGUU | 1.87
AAGUCCUGUGCUACACAUCGUAUGUACCGAAUCGGGUUUUGGUUUUGGGGUUUUGGGAAAGUAUUAUGUUACGCCGUUCGGAUCUGCACU | -0.964
AGAGAAAAGGAACAGUUCCGUAAGCUCUUUAUUGGUGGCUUAAGCUUUGAAACCACAGAAGAAAGUUUGAGGAACUACUACGAACAAUGG | -2.48
GUCCUGUGCUACACAUCGUAUGUACCGAAUCGGGGUGGGGAAAAAAAGGGGAAAGGGGAAAGUAUUAUGUUACGCCGUUCGGAUCUGCAC | 2.44
CUCAAGUCCUGUGCUACACAUCGUAUGUACCGAAUCGGGGAGGGAGGGAGGGGAAAGUAUUAUGUUACGCCGUUCGGAUCUGCACUUCCA | 2.76
GUCCUGUGCUACACAUCGUAUGUACCGAAUCGGCCCCCGGGGCCCCCGGGCCCCCGGGGAAAGUAUUAUGUUACGCCGUUCGGAUCUGCA | -1.89
CACAGACAACACGCACCCACACAGACACAGAGGGAAGGGGUUGGGAUGGGGACAGGGUGCACAACAGGGCGGGGUAGGACCCCAGCCCCU | -0.408
UAACUUUAGAGGAGGAUCUGAUGGAUAUGGCCGUGGACGUGGAUUUGGGGAUGGCUAUAAUGGGUAUGGAGGAGGACCUGGAGGUGGCAA | -1.35
UACUCAGCACAGAAAUUCAGGAGACACAGACAAGUUCUUCCACGAUGUCGUACAGACGAGAACUAGAGAAAUACCGUGACCUGGAUGAAG | -0.174
ACCAUGCAGGUGGGCAUCUUUGGGAAGUGGGGCAAGGGGGGGAUAGGGAGGGGGGUAACACUUUGGGAACAGGUGGUCCCAGGUCAUUUC | 2.04
UCCUGUGCUACACAUCGUAUGUACCGAAUCGGGAAAAAAAGGGUUUGGGUUUUUUUGGGAAAGUAUUAUGUUACGCCGUUCGGAUCUGCA | -0.292
CUCAAGUCCUGUGCUACACAUCGUAUGUACCGAAUCGGUUGGGUUGGUUGGGGAAAGUAUUAUGUUACGCCGUUCGGAUCUGCACUUCCA | -0.732
GCAGGAAGUAAAAACAAAUGGAAAUGCUUCGGAUAGUGGCAGGGGUGGGGGUUGCUAAGGAAAGGGUGGGAUGGGAGUAGGUAAAGAGUU | 1.79
CCUGUGCUACACAUCGUAUGUACCGAAUCGGGCCCCCCCGGGGCCCCCCCGGCCCCCCCGGAAAGUAUUAUGUUACGCCGUUCGGAUCUG | -1.37

Block 4 — method: RNA Bind-n-Seq; form: RNA; medium: in vitro; concentration: 365 nM; baseline: no-protein control; reading: higher = stronger binding
Target: RNA binding protein fox-1 homolog 2, RRM domain, GST-SBP tag (RBFOX2, Homo sapiens, UniProt O43251-10, residues 100-194)
Notes: natural RNA segment, single round, ends assumed
All sequences stand within: GGGAGUUCUACAGUCCGACGAUC … UGGAAUUCUCGGGUGCCAA
Residues (chain): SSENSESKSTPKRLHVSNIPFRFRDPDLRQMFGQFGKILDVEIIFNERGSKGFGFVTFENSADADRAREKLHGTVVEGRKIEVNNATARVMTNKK
Oligonucleotide | RBNS enrichment (R)
GAGCGAGCGCCCUUUAGCGGCCUGCCACCACAGCACGCGGCCUCCUGAUCCGGAAGCACGCAGCAUGUUCCCUGCUGAGCGGAGGCAGCCCACCUGUCCUGCCUCCCAGG | 13.9
ACUCUGUGACGGAGCUGAAGGACUCUUGCCGUAGAUUAAGCCAGUCAGUUGCAAUGUGCAAGACAGGCUGCUUGCCGGGCCGCCCUCGGAACAUCUGGCCCAGCAGGCCC | 0.526
UCCUAGGGGCCUCUGUACCUGCCCUGCUGGAAGCCCUGACUUCCCCGGGGCCCCAGGCUGUGUUAGGGUUCUCUGGGCCUCUUCUUUGUACCAGCAGCCCUGCAUACAGG | 0.297
CUGGUCUUUUGUGAAUGGAUGGUUUUGUUUCCUAUGGGAAUUUUGGCAAAGGUUUUCUGGAAAGAACAAGUUUCUCAAAGGACUUUCUUCCUCUAGAAUGUUCAUUUUAU | 0.488
UUUAAAUUACUGGAUUCUAAGGAAUUUCUUAUCUGACAGAGCAUCAGAACCAGAGGCUUGGUCCCACAGGCCACGGACCAAUGGCCUGCAGCCGUGACAACACUCCUGUC | 0.262
UUAAAGCAAGGAAAAGUGUCACUGAAACAUAAACUGCACCUUAUUGUUUUAUAUUUUUGUACAGAUGAGAAGUUGAGGUAGAACACUGAGUAGAAAGGGCGACUGACCCU | 1.33
AACCUGUAGUGAAGUAGACUUGGCCGUCCCUGGACAGUGAGGUCAGAUGUGAAUACAUAUUGUAAGAGCACGUUGAAUAGUGUGCAUUACUGUGGGGAAACACCGAAACU | 0.256
GGGUGUUCACCAUGAUAACCUAGUGCCUCCAUAGAGGGGUUUGGAAAAAUUCCAGUCCGAUUUCUUUGUGUGUCAGCUGACUUCCUUAGCUGAUUGUUCCCACUUGCACC | 0.276
CCAAUCCCGGUCAUGCUUUUGCCACUUUGGCUUCUCCUGUGACCCCACCUUGACGGUGGGGCGUAGACUUGACAACAUCCCACAGUGGCACGGAGAGAAGGCCCAUACCU | 0.178
ACACUGGAAUGAUUUAGCUUUGUUAUUGCAUGUCUUGUGUUAAGUGUUUUGUAUAUGAUAUUGCAGUUUUACUAGGCAAAUCUUCAAAAGAUGCACUUUAGGAAACGAAA | 1.31
CCUCCGUGCUGUCAGUGUGGUGUGCUUUCUGCAUGGUUAUAUACUACUAGUAACUUUAUCAAAUUUCAAAUUACAUGGUAAAAGAUCUGUAAAGGCUGCAUCCAUGUUAG | 1.07
CCCCCGUUAAACUACAGCUGACCCUGGGCCUCAGGGCGGGAUGGUCCCAAGGUGAGCUCCGUGGACAGCAAAGCGCAUUUCUUCCAGUUGGCAUGUUGUCGAAGCCAAUG | 1.05

A few entries again (block 3):
Oligonucleotide | log2 enrichment
GUCCUGUGCUACACAUCGUAUGUACCGAAUCGGGGUGGGGAAAAAAAGGGGAAAGGGGAAAGUAUUAUGUUACGCCGUUCGGAUCUGCAC | 2.44
CUCAAGUCCUGUGCUACACAUCGUAUGUACCGAAUCGGGGAGGGAGGGAGGGGAAAGUAUUAUGUUACGCCGUUCGGAUCUGCACUUCCA | 2.76
GUCCUGUGCUACACAUCGUAUGUACCGAAUCGGCCCCCGGGGCCCCCGGGCCCCCGGGGAAAGUAUUAUGUUACGCCGUUCGGAUCUGCA | -1.89
CACAGACAACACGCACCCACACAGACACAGAGGGAAGGGGUUGGGAUGGGGACAGGGUGCACAACAGGGCGGGGUAGGACCCCAGCCCCU | -0.408
UAACUUUAGAGGAGGAUCUGAUGGAUAUGGCCGUGGACGUGGAUUUGGGGAUGGCUAUAAUGGGUAUGGAGGAGGACCUGGAGGUGGCAA | -1.35
UACUCAGCACAGAAAUUCAGGAGACACAGACAAGUUCUUCCACGAUGUCGUACAGACGAGAACUAGAGAAAUACCGUGACCUGGAUGAAG | -0.174
ACCAUGCAGGUGGGCAUCUUUGGGAAGUGGGGCAAGGGGGGGAUAGGGAGGGGGGUAACACUUUGGGAACAGGUGGUCCCAGGUCAUUUC | 2.04
UCCUGUGCUACACAUCGUAUGUACCGAAUCGGGAAAAAAAGGGUUUGGGUUUUUUUGGGAAAGUAUUAUGUUACGCCGUUCGGAUCUGCA | -0.292
CUCAAGUCCUGUGCUACACAUCGUAUGUACCGAAUCGGUUGGGUUGGUUGGGGAAAGUAUUAUGUUACGCCGUUCGGAUCUGCACUUCCA | -0.732
